# Measured values from different studies.
# Compare with care: the assays were run in different laboratories. ± marks the error that the study gave.
# Chain of UniProt Q9C0E2 (whole entry, looked up): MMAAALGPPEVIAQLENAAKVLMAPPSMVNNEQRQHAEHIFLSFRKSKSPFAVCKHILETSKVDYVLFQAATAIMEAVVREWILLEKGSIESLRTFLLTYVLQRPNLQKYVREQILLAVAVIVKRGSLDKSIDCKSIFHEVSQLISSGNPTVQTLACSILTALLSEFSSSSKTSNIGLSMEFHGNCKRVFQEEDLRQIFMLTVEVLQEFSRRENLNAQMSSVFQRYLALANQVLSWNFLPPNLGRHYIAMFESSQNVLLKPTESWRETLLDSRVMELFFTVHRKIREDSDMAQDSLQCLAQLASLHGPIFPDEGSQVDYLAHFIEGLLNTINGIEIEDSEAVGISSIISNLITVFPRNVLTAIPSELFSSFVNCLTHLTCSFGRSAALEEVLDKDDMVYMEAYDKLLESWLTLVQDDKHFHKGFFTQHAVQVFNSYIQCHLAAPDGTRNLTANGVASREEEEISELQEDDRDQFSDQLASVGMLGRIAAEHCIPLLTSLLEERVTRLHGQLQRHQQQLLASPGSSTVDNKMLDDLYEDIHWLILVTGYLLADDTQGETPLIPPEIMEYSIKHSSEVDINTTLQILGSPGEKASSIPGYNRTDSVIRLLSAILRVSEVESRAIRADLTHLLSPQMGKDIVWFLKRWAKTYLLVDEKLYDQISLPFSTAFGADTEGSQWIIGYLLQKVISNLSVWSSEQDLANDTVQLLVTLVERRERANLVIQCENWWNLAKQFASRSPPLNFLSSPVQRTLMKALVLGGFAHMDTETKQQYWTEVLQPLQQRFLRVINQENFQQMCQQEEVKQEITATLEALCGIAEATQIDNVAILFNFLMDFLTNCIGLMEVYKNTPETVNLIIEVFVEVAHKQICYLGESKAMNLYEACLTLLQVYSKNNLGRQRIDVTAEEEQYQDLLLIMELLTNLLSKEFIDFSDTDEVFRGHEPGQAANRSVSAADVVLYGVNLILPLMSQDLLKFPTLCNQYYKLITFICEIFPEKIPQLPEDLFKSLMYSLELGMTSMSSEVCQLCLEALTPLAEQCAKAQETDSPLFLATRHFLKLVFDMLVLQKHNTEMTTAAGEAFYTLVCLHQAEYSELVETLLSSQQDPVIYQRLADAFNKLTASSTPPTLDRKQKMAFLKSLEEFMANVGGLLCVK
# Chain of UniProt Q9Y233 (whole entry, looked up): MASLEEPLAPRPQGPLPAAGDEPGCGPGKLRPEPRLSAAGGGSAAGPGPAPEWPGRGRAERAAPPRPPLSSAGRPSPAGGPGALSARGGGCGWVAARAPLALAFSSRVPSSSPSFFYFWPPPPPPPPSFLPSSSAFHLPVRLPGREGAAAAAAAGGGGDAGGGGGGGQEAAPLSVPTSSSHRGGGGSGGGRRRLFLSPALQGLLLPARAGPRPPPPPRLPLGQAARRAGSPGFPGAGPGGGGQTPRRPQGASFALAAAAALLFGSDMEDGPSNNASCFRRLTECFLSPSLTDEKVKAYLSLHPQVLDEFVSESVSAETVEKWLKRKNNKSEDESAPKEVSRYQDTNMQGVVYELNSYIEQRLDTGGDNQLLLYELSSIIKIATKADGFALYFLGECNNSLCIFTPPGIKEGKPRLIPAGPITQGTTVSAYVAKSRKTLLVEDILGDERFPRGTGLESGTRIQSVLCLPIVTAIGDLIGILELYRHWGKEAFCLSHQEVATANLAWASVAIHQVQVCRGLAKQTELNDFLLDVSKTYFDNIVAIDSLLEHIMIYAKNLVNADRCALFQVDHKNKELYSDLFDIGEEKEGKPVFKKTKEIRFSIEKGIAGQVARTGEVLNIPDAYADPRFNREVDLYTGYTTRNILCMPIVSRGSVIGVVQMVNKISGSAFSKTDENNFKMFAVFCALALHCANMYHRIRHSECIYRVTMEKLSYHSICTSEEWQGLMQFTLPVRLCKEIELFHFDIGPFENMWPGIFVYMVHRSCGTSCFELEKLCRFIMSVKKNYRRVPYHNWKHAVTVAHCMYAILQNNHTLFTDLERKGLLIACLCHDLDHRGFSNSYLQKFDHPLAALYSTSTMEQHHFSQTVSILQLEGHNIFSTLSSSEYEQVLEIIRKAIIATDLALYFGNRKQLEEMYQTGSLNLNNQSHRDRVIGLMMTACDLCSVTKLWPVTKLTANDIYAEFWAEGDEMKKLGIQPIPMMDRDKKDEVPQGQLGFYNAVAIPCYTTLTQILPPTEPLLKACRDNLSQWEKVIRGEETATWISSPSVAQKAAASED
Structure (SMILES),tested on,assay,test system,setting,scale,endpoint,value
[Cl-].[Cl-].[Pt+2].[Ru+2].c1ccc(-c2nc3cc4ccccc4cc3nc2-c2ccccn2)nc1.c1cnc2c(c1)ccc1cccnc12.c1cnc2c(c1)ccc1cccnc12,Danio rerio,,embryos,"15 µM, 12 h",,survival rate,100%
C[C@@H](O)[C@@H](CO)NC(=O)[C@@H](CCCNC(=N)N)NC(=O)[C@@H]1CCCN1C(=O)[C@@H]1CSSC[C@H](NC(=O)[C@H](Cc2ccccc2)NC(=O)CN2CCN(CC(=O)O)CCN(CC(=O)O)CCN(CC(=O)O)CC2)C(=O)N[C@@H](Cc2ccc(O)cc2)C(=O)N[C@@H](Cc2ccccc2)C(=O)N[C@@H](CCC(N)=O)C(=O)N[C@@H](CC(N)=O)C(=O)N1 [gallium-68 labelled],,,"Wistar rat, bone","intravenous, 8 MBq, 120 min, group mean",,tissue uptake,0.02 %ID/g
[Cl-].[Cl-].[Pt+2].[Ru+2].c1ccc(-c2nccnc2-c2ccccn2)nc1.c1cnc2c(c1)ccc1cccnc12.c1cnc2c(c1)ccc1cccnc12,Danio rerio,,embryos,"15 µM, 0 h",,survival rate,100%
O[C@@H](CNCCN1CCN(C(c2ccccc2)c2ccccc2)CC1)c1cc(Cl)cc2c1-c1ccc(Cl)cc1C2,Plasmodium falciparum,,3D7,,reference: HepG2 CC50 over IC50,selectivity index,1910
CNC(=O)c1c(N(C)N=O)ncn1C,Salmonella typhimurium,"mutagenicity, Ames plate incorporation",TA100,"500 µg/plate, without S9, methanol",,revertant colonies per plate,116 ± 16
C[C@H]1CN(c2n[nH]c3nc(N[C@H]4CC[C@H](NS(=O)(=O)CCC(F)(F)F)CC4)ncc23)CCO1,"Exportin-4 (Homo sapiens, UniProt Q9C0E2)","Kinobeads competition, measured: XPO4",,"0.16 µM, unit not given",reference: vehicle,remaining binding,1.59
CCCCN(CCCC)CC(O)c1cc(Cl)cc2c1-c1ccc(Cl)cc1/C2=C/c1ccc(Cl)cc1 (stereo not shown),Plasmodium falciparum,,W2,,reference: HepG2 CC50 over IC50,selectivity index,> 24000
Cc1cc(C(=O)NC(C)(C)COc2cccc3c2C(N)=NS(=O)(=O)N3)cc(C)n1,Escherichia coli,"Ames test, initial",WP2 uvrA,"150 µg/plate, with: rat liver S9",reference: solvent control,revertant ratio,1
O=[N+]([O-])c1ccc(N2CCN(CCC(O)c3ccc(F)cc3)CC2)c(C(F)(F)F)c1 (stereo not shown),Salmonella typhimurium,SOS/umu test,TA1535/pSK1002,"0.002 mg/mL, 4 h, with S9, full range",,survival,88.5%
[Cl-].[Cl-].[Pt+2].[Ru+2].c1ccc(-c2nc3ccccc3nc2-c2ccccn2)nc1.c1cnc2c(c1)ccc1cccnc12.c1cnc2c(c1)ccc1cccnc12,Danio rerio,,embryos,"30 µM, 24 h",,survival rate,86.7 ± 3.4%
Fc1ccc(C2=CCNCC2)cc1,Salmonella typhimurium,"SOS response, SOS/umu test",TA1535/pSK1002,"0.001 mg/mL, 4 h, without S9 activation",,umu induction factor,1.2
O=C(NC(=O)c1ccccc1Cl)Nc1ccc(Cl)cc1,Ostrinia furnacalis,leaf dipping,,"50 mg/L, 96 h",,mortality,23.3 ± 1.6%
OC(CCN1CC=C(c2ccc(F)cc2)CC1)c1ccc(F)c2ccccc12 (stereo not shown),Salmonella typhimurium,SOS/umu test,TA1535/pSK1002,"0.125 mg/mL, 4 h, with S9, lower range",,survival,53.6%
COc1cc(Nc2ncc(F)c(Nc3ccc4c(n3)NC(=O)C(C)(C)O4)n2)cc(OC)c1OC,"PDE10A (Homo sapiens, UniProt Q9Y233)",,,,,IC50,> 10 µM
COc1ccnc(C(=O)N[C@H]2COC(=O)[C@H](Cc3ccccc3)[C@@H](OC(=O)C(C)C)[C@H](C)OC2=O)c1OCOC(=O)C(C)C,Pimephales promelas,mortality,,"water exposure, flow-through, 96 h",,LC50,1.79 ng/mL
CC[C@H](C)[C@H](NC(=O)[C@H](Cc1ccccc1)NC(=O)[C@H](CCC(=O)O)NC(=O)[C@H](CCCNC(=N)N)NC(=O)[C@H](C)NC(=O)[C@H](C)NC(=O)[C@H](CCC(N)=O)NC(=O)[C@H](CCC(=O)O)NC(=O)[C@H](CCC(=O)O)NC(=O)[C@H](CC(C)C)NC(=O)[C@H](Cc1ccc(O)cc1)NC(=O)[C@H](CO)NC(=O)[C@H](CO)NC(=O)[C@@H](NC(=O)[C@H](CC(=O)O)NC(=O)[C@H](CO)NC(=O)[C@@H](NC(=O)[C@H](Cc1ccccc1)NC(=O)[C@@H](NC(=O)CNC(=O)[C@H](CCC(=O)O)NC(=O)[C@H](C)NC(=O)CCc1c[nH]cn1)[C@@H](C)O)[C@@H](C)O)C(C)C)C(=O)N[C@@H](C)C(=O)N[C@@H](Cc1c[nH]c2ccccc12)C(=O)N[C@@H](CC(C)C)C(=O)N[C@H](C(=O)N[C@@H](CCCNC(=N)N)C(=O)NCC(=O)N[C@@H](CCCNC(=N)N)C(=O)N[C@@H](CCCCNC(=O)COCCOCCNC(=O)COCCOCCNC(=O)CC[C@H](NC(=O)CCCCCCCCCCCCCCCCC(=O)O)C(=O)O)C(=O)NCC(=O)NCC(=O)N[C@@H](CO)C(=O)N[C@@H](CCCCNc1c(NCCCCCN(O)C(=O)CCC(=O)NCCCCCN(O)C(=O)CCC(=O)NCCCCCN(O)C(C)=O)c(=O)c1=O)C(=O)O)C(C)C [zirconium-89 labelled],,gamma counting,"rat, skin of neck","subcutaneous, 3 nmol/kg, 168 h",,tissue uptake,0.1 %ID/g
COc1cc2c(Oc3ccc4[nH]c(C)cc4c3F)ccnc2cc1OCC1(N)CC1,,,paediatric recurrent refractory sarcoma,10 mg,,grade 3 Triglyceride elevation,0%
COCc1nn(Cc2ccc(Cn3ccccc3=O)cc2)cc1C(=O)NCc1nccc(OC)c1F,bacteria,"Ames test, non-GLP",,concentration not given,,mutagenicity,negative
COc1cccc(-c2n[nH]c(SCc3ccccn3)n2)c1OC,Salmonella typhimurium,"Ames test, plate incorporation",TA1535,"0.50 mg/plate, with rat liver S9",,revertant colonies per plate,13
CC(=O)N1CCC(C(=O)N2CCN3C(=O)c4cc(-c5ccccc5)ccc4NC(=O)C3C2)CC1 (stereo not shown),Escherichia coli,,WP2 uvrA,"5.0 µg/plate, without S9",,revertants per plate,21.5
CO[C@H]1C[C@@H]2CC[C@@H](C)[C@@](O)(O2)C(=O)C(=O)N2CCCC[C@H]2C(=O)O[C@H]([C@H](C)C[C@@H]2CC[C@@H](OC(=O)NCCOCCOCCOCCOCCOCCOCCOCCOCCC(=O)N3CCc4cc(Cn5nc(-c6ccc7oc(N)nc7c6)c6c(N)ncnc65)ccc4C3)[C@H](OC)C2)C[C@@H](O)[C@H](C)/C=C(\C)[C@@H](O)[C@@H](OC)C(=O)[C@H](C)C[C@H](C)/C=C/C=C/C=C/1C,,,patients with advanced solid tumours,"intravenous, 12 mg weekly, grade 3 or higher",,fatigue incidence,0%
CC[C@H](C)[C@@H]1NC(=O)[C@@H]2CCCN2C(=O)[C@H](CC(C)C)NC(=O)[C@H](CC(C)C)NC(=O)CNC(=O)[C@@H](NC(=O)[C@@H](NC(=O)[C@H](CC(=O)O)NC(=O)CNC(=O)[C@@H](NC(=O)[C@H](C)NC(=O)CNC(=O)[C@H](CCCCN)NC(=O)[C@H](CC(C)C)NC(=O)[C@H](CC(C)C)NC(=O)[C@H](CCCCN)NC(=O)CNC(=O)[C@@H](NC(=O)[C@@H](N)CC(C)C)C(C)C)C(C)C)C(C)C)CSSC[C@@H](C(=O)O)NC1=O,,"RNA-seq, measured: Rab43","mouse, traumatic brain injury model, frontal cortex and hippocampus",dose not given,reference: TBI alone,log2 fold change,-1.1

# Some of these lines once more:
Structure (SMILES),tested on,assay,test system,setting,scale,endpoint,value
CO[C@H]1C[C@@H]2CC[C@@H](C)[C@@](O)(O2)C(=O)C(=O)N2CCCC[C@H]2C(=O)O[C@H]([C@H](C)C[C@@H]2CC[C@@H](OC(=O)NCCOCCOCCOCCOCCOCCOCCOCCOCCC(=O)N3CCc4cc(Cn5nc(-c6ccc7oc(N)nc7c6)c6c(N)ncnc65)ccc4C3)[C@H](OC)C2)C[C@@H](O)[C@H](C)/C=C(\C)[C@@H](O)[C@@H](OC)C(=O)[C@H](C)C[C@H](C)/C=C/C=C/C=C/1C,,,patients with advanced solid tumours,"intravenous, 12 mg weekly, grade 3 or higher",,fatigue incidence,0%
